# Measured values pooled from the literature.
# Each numbered part is a random draw from the data of one study; scales do not carry over between parts.

# Sample 1
# Target: POU domain, class 5, transcription factor 1, POU domain (Pou5f1, Mus musculus, UniProt P20263, residues 131-289)
# Sequence of UniProt P20263 (131-289, looked up): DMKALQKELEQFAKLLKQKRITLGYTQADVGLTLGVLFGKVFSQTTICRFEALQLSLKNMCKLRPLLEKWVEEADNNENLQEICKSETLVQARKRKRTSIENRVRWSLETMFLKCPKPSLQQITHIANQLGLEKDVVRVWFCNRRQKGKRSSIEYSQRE
# Technique: Spec-seq
# Molecule type: double-stranded DNA, one strand shown
# Medium: in vitro
# Concentration: not given
# Setting: whole probe, mean of replicates
# Relative to: not given
# Reading: lower = stronger binding
# Constant ends, left off below: GAGTCGTCTCGTCAGCAC … CCGTAGAGCACTCAGGTC
Sequence,relative binding energy [ln ratio]
ATGCTGTA,0.611
ATGTTAAT,-2.31
CAGTTAAT,0.733
ATGCTCGC,0.856
ATGCCAGA,0.397
ACACTAAT,0.442
ATGCGGTA,0.606

# Sample 2
# Cell line: HEK-293T/ACE2
# Concentration: 10 µM
# Time: 16 h
# Relative to: vehicle
SMILES,viability [%]
COC(=O)C1=C(C)NC(C)=C(C(=O)OC(C)C)C1c1cccc2nonc12 (stereo not shown),98.7
C#Cc1cccc(Nc2ncnc3cc(OCCOC)c(OCCOC)cc23)c1,99.3
Cc1cc(C)nc(NS(=O)(=O)c2ccc(N)cc2)n1,99.6
CCN(CC)C(=O)/C(C#N)=C/c1cc(O)c(O)c([N+](=O)[O-])c1,102

# Sample 3
# Target: Histone acetyltransferase KAT6A, both winged helices, GST fusion (KAT6A, Homo sapiens, UniProt Q92794, residues 1-181)
# Technique: protein binding microarray
# Molecule type: double-stranded DNA, one strand shown
# Medium: in vitro
# Concentration: not given
# Setting: 8-mer, flanks averaged, mean of 2 arrays, mostly near background
# Relative to: not given
# Reading: higher = stronger binding
# Construct (chain): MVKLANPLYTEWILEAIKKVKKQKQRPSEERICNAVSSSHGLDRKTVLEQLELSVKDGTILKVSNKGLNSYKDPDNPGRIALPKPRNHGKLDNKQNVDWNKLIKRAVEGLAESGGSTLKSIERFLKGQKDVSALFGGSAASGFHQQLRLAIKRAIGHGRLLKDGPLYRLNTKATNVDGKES
Sequence,E-score
ACGTTGCG,0.19
ATGGACGG,0.159
GGCTCAGA,0.00232
GCCACTAC,0.00307
ACTACGAA,-0.166
GTATTTTA,-0.0246
GAGACTCA,-0.164
AGTGCGCA,0.235

# Sample 4
# Target: Replicase polyprotein 1ab, nsp13 helicase (rep, Severe acute respiratory syndrome coronavirus 2, UniProt P0DTD1)
# Mode: inhibitor
# Concentration: 20 µM
Compound,inhibition [%]
O=C(O)CSc1nnc(Br)n1-c1ccc(C2CC2)c2ccccc12,11.5
N[C@@H](CCC(=O)O)C(=O)O,8.94
CN1C[C@@H]2CN(c3ccc(-c4ccccc4)nn3)C[C@@H]2C1,6.04
CNc1nc(NCc2ccc(NS(C)(=O)=O)cc2Cl)cc(-c2ccccn2)n1,-0.29
Cc1cc(C(=O)Nc2nc3cccc(Cl)c3n2[C@@H]2CCCCN(C(=O)/C=C/CN(C)C)C2)ccn1,19.7
CC(C)CC(=O)Nc1n[nH]c2c1CN(C(=O)C1CCN(C)CC1)C2(C)C,-1.84
CNC(=O)c1ccc(N2C(=S)N(c3cnc(C#N)c(C(F)(F)F)c3)C(=O)C23CCC3)cc1F,3.6
FC(F)OC(F)(F)C(F)Cl (stereo not shown),3.24
CC(C)(C)NCC(O)c1cc(Cl)c(N)c(Cl)c1 (stereo not shown),-0.27
Cc1cc(C(N)=O)ccc1-n1c(CCC(=O)O)ccc1-c1ccc(-n2ccnc2)cc1,17
Cc1nnc(-c2ccc3occ(-c4ccc([S+](C)[O-])cc4)c3c2)o1 (stereo not shown),3.22
NC(=O)c1nc(F)cnc1O,-2.68
COc1cccc(-c2c(C)n(Cc3c(F)cccc3C(F)(F)F)c(=O)n(C[C@H](NCCCC(=O)O)c3ccccc3)c2=O)c1F,9.96
COC(=O)[C@H](CC(C)C)NC(=O)[C@@H](N)CC(C)C,7.09
CCOC(=O)CCNc1cc(N2CCc3ccccc3CC2)nc(-c2ccccn2)n1,-3.07
CC1=NC[C@H](O)[C@@H](C(=O)O)N1,-2.96
C=CCc1ccc(O)c(-c2ccc(O)c(CC=C)c2)c1,2.92
CCOc1cc2ncc(C#N)c(Nc3ccc(OCc4cccc(F)c4)c(Cl)c3)c2cc1NC(=O)/C=C/CN(C)C,8.47
CCc1nc(C(N)=O)c(Nc2ccc(N3CCC(N4CCN(C)CC4)CC3)c(OC)c2)nc1NC1CCOCC1,1.19
Cn1cc(-c2ccc3c(c2)CCN3C(=O)Cc2cccc(C(F)(F)F)c2)c2c(N)ncnc21,4.54
O=C1C2CCN(CC2)C1(CO)CO,5.47
N#CC(c1ccnc(OCc2ccc(CN3CCOCC3)cc2)n1)c1nc2ccccc2s1 (stereo not shown),12
CCOc1cc(C(C)(C)C)ccc1C1=N[C@@](C)(c2ccc(Cl)cc2)[C@@](C)(c2ccc(Cl)cc2)N1C(=O)N1CCN(CCCS(C)(=O)=O)CC1,7.37
COc1ccccc1OCC(O)CNC(C)C (stereo not shown),5.98
O=P(O)(O)C(O)(Cc1cccnc1)P(=O)(O)O,1.75

# Sample 5
# Target: Replicase polyprotein 1ab, main protease (rep, Severe acute respiratory syndrome coronavirus 2, UniProt P0DTD1)
# Effect on: enzyme activity
# Mode: inhibitor
# Concentration: 20 µM
# Setting: hit confirmation, with DTT
Structure (SMILES),inhibition [%]
N[C@@H](C(=O)N[C@@H]1C(=O)N2C(C(=O)O)=C(Cl)CS[C@H]12)c1ccccc1,-4.2
COc1cc(N(C)C)cc(CN(C)CCc2ccc([N+](=O)[O-])cc2)c1O,90.8
CC1=C(/C=C/C(C)=C/C=C/C(C)=C/C(=O)O)C(C)(C)CCC1,5

# Sample 6
# Target: RNA binding protein fox-1 homolog 2, RRM domain, GST-SBP tag (RBFOX2, Homo sapiens, UniProt O43251-10, residues 100-194)
# Technique: RNA Bind-n-Seq
# Molecule type: RNA
# Medium: in vitro
# Concentration: 365 nM
# Setting: natural RNA segment, single round, ends assumed
# Relative to: no-protein control
# Reading: higher = stronger binding
# Residues (chain): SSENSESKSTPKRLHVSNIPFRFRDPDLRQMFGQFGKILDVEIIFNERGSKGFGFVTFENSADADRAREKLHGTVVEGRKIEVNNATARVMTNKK
Sequence,RBNS enrichment (R)
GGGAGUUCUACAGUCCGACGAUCCAGUAUUCAGCGAGCACGCGAACCCACGCUUCUUACCUUUACCUUGAGCUGGGACUGGCUUGGGGCUUAGAACCAAGAACAGGUAGAAAAUUCCUUAAACAAAGCAUUCCUGGAAUUCUCGGGUGCCAA,1.88
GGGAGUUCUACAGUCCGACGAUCAUCAUGGGACAUCAUGGGAUGGCAGCUAGAUAGCAUGAAACAAUUUAUCUUCUCAUAUUUGACAAAUUUGUGAUAGAAAUAAUAAUUCCCACAUCUACCGGUACUUGCCUUGGAAUUCUCGGGUGCCAA,3.35
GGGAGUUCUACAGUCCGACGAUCAUGCAGUCAAUUAUUCACGCCAUGCACAGCAUAAUUUGCUCCUUUGUGUGGAGUGGUGUGUCAGCCCUUGAACAUCUCCUCCAAAGAGACUAGAAGAGUCUUAAAUUAUAUGGAAUUCUCGGGUGCCAA,0.333
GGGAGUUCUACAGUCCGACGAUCCUAUUCUCUUCCAGAGUUUUCUUCAACUUCCAUCUUAUAAACCAAGGUAUUUAAAUUGUUCAUCUUAGUUGACUUUCCCAAGCCAUACUUCUAAAACAAAACACCAGCCCUGGAAUUCUCGGGUGCCAA,0.575
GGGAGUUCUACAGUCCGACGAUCUCAAUUAUCAGUGGCUUUAUGAAGUAAAGUUAAAAACAAACAUAGGAAAUGUGAAAAUAUUUGUGUUUGUUUUGUCUGACUAACUUGCUGCUAAAUGCUAUCUUUAGGUGUGGAAUUCUCGGGUGCCAA,0.412
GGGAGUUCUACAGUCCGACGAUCAGCAAGGCGCCCAUGCCACACACCGUCUCUCGAGGAAACGCGGUUCAGCGAUUCUUUGACUGCGGACCCUGUGGGAAACCCCGUCAAUAAAUGUUAAAGACACACUCCGAUGGAAUUCUCGGGUGCCAA,0.239
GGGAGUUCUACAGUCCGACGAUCCCAACUACCAACACCCGACUCUAUUGGUGCAUUUAAAAUGUGAUUCCAUUUUUUCUUACAAUUCUUCAGGGAACUUACCUGCAUUAAGUGAGGUUAAAUGCAUUCAGGAGUGGAAUUCUCGGGUGCCAA,0.584
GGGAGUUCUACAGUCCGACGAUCGUACUCUUUCAAGUACGCAAGCUUUGACUUCACUACUUGCUGUAGCCUGUCCCCACUGUCUAUCCAGUGCUUACUUCAACCCUAGAGGCUGCCUUGACCCGAGGAGGCAUUGGAAUUCUCGGGUGCCAA,0.449

# Repeated from above (sample 4):
Compound,inhibition [%]
CCOC(=O)CCNc1cc(N2CCc3ccccc3CC2)nc(-c2ccccn2)n1,-3.07
CC1=NC[C@H](O)[C@@H](C(=O)O)N1,-2.96
C=CCc1ccc(O)c(-c2ccc(O)c(CC=C)c2)c1,2.92
CCOc1cc2ncc(C#N)c(Nc3ccc(OCc4cccc(F)c4)c(Cl)c3)c2cc1NC(=O)/C=C/CN(C)C,8.47
